Experimental data of several laboratories.
Parts stem from different laboratories: compare values within a part only.
Sequence of UniProt P68400 (whole entry, looked up): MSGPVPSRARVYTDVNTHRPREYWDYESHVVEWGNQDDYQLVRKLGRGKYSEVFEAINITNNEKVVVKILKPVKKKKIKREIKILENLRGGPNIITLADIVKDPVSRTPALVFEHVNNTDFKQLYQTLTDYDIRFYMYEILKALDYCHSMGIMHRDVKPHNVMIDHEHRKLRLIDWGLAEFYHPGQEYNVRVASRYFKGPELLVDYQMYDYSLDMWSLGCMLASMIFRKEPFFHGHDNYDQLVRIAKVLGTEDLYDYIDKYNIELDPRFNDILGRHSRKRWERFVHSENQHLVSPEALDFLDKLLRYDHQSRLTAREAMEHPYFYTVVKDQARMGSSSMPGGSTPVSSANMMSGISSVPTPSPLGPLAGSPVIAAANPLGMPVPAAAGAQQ
Sequence of UniProt Q5VT25 (whole entry, looked up): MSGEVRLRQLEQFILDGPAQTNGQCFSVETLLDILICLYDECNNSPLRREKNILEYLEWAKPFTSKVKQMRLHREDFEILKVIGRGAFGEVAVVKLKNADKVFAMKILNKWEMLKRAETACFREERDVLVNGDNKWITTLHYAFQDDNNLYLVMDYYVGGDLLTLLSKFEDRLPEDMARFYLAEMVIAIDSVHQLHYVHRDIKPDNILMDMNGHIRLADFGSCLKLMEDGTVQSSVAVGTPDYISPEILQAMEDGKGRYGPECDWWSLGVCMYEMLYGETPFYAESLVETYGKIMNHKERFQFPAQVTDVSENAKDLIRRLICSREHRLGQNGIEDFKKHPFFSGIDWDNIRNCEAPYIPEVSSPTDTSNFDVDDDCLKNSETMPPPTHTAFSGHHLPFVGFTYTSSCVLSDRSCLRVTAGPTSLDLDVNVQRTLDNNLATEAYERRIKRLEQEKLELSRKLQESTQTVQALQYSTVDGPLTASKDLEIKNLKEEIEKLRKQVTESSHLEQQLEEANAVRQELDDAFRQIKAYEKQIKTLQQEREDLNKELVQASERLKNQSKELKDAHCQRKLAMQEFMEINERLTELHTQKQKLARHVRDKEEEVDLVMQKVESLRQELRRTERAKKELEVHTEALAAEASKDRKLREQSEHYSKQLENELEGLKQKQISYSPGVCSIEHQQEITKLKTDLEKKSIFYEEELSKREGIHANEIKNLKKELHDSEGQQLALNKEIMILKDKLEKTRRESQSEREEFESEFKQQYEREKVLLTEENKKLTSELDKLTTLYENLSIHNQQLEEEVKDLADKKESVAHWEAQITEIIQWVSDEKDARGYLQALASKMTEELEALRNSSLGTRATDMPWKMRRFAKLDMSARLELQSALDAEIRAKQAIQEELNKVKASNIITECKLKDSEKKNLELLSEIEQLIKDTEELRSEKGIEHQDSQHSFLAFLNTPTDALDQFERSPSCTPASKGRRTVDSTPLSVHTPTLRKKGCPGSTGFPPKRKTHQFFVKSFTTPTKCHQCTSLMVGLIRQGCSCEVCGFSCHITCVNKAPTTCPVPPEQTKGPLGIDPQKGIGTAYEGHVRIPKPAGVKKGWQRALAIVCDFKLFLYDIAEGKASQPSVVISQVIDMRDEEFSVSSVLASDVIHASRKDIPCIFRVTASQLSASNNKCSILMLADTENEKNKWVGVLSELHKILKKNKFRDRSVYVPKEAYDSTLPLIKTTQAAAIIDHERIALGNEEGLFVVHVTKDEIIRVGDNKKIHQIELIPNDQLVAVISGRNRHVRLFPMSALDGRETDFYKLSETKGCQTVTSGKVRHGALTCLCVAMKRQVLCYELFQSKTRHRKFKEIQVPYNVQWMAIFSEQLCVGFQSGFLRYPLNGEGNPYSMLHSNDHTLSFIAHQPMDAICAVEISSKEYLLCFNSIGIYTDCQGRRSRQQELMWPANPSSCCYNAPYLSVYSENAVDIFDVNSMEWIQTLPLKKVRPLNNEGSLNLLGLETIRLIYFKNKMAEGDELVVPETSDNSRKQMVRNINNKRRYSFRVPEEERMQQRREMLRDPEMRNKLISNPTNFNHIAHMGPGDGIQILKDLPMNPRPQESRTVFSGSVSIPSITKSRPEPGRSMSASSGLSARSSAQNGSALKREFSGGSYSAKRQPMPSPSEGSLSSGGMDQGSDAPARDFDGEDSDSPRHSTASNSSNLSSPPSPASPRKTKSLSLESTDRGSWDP
Sequence of UniProt P42679 (whole entry, looked up): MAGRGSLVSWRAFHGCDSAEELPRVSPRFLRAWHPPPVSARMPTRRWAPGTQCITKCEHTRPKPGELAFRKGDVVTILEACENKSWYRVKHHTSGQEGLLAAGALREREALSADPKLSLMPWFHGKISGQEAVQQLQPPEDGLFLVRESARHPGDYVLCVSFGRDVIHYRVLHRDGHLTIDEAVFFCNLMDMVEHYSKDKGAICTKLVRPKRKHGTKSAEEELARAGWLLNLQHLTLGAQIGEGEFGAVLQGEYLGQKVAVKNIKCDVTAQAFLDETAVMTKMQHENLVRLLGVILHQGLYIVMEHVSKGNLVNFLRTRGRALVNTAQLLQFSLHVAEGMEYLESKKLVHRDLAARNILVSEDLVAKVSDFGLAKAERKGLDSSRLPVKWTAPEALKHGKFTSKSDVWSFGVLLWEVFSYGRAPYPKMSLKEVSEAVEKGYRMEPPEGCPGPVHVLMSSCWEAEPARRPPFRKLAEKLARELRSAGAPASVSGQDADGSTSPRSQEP
Sequence of UniProt Q9UIK4 (whole entry, looked up): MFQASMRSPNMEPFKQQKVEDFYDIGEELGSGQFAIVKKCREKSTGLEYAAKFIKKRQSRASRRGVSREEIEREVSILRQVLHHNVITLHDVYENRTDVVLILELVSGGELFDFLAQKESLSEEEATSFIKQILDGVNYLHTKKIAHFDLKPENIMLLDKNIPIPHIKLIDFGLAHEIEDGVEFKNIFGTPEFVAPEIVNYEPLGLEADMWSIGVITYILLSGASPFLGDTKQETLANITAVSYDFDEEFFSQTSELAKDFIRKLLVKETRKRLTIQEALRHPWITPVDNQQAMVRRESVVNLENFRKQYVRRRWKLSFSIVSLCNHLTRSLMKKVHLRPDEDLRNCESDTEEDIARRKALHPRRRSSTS
Sequence of UniProt P49840 (whole entry, looked up): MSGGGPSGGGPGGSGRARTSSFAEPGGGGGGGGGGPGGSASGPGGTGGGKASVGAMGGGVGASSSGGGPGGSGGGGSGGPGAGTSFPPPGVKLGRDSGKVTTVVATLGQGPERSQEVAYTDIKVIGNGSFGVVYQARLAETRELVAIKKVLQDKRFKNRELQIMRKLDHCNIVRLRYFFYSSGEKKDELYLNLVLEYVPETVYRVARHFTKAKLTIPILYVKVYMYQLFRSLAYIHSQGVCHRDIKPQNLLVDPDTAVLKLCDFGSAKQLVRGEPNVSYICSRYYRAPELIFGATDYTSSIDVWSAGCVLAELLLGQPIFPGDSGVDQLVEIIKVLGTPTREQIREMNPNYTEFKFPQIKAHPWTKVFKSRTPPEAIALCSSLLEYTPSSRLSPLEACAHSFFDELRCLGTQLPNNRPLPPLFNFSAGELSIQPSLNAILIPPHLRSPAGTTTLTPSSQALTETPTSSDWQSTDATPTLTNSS
Sequence of UniProt P42336 (whole entry, unmodified, looked up): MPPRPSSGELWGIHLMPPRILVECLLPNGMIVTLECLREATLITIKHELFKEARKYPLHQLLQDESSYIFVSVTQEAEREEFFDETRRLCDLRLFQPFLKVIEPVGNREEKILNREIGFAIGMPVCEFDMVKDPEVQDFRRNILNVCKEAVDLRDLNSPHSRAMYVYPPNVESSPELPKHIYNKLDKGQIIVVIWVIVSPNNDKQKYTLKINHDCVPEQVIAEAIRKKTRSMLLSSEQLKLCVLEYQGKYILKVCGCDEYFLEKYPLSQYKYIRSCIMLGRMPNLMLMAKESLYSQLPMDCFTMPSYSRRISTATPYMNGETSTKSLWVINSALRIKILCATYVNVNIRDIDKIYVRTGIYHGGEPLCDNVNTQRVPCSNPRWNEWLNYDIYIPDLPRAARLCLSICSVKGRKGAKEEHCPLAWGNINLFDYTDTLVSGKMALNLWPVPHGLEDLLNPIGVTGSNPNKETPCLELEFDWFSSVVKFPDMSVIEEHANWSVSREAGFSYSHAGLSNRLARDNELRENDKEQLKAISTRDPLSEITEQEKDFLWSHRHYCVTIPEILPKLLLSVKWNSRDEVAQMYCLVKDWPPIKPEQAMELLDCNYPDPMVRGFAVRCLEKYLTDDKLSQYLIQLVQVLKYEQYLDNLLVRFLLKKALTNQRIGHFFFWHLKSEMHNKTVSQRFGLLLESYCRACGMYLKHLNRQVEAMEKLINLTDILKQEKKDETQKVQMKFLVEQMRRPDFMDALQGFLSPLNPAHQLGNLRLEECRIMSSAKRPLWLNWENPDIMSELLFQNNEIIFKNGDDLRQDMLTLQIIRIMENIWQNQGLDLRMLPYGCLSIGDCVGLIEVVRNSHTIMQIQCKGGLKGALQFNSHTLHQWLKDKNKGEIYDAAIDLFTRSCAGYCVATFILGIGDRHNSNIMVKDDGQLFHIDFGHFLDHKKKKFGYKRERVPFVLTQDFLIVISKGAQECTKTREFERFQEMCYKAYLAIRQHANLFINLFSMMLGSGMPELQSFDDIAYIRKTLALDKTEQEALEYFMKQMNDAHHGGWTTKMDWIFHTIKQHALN
Sequence of UniProt Q9HCP0 (whole entry, looked up): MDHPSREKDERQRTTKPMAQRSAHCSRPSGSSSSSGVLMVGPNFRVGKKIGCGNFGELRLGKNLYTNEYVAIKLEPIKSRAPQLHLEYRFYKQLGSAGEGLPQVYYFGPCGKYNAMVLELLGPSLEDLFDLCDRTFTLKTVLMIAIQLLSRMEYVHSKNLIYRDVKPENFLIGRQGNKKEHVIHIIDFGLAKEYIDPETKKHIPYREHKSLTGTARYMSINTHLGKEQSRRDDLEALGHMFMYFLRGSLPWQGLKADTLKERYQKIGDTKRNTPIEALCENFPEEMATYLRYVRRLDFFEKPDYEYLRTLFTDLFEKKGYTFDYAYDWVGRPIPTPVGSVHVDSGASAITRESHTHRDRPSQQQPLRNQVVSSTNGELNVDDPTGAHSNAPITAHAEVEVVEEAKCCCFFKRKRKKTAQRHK

Sample 1
Cell line: HH
Tested at: 2 µM
Time: 48 h
Baseline: untreated
With `O=C(Cc1ccc(-c2ccc(OCCN3CCOCC3)cc2)cn1)NCc1ccccc1` the viability was 26.7%.
With `COc1cc(OC)c(/C=C/S(=O)(=O)Cc2ccc(OC)c(NCC(=O)O)c2)c(OC)c1` the viability was 38.3%.
For `COc1cccc(-n2c(=O)[nH]c3cc(Cl)n(-c4ccc(-c5cccc(OC)c5O)cc4)c3c2=O)c1`, the viability was 93.2%.
`CC(=O)c1c(C)c2cnc(Nc3ccc(N4CCNCC4)cn3)nc2n(C2CCCC2)c1=O` has a viability of 67.9%.
The viability of `Nc1cc(C(F)(F)F)c(-c2cc(N3CCOCC3)nc(N3CCOCC3)n2)cn1` is reported as 19.2%.
With `CCc1cc(Nc2nccc(-c3c(-c4ccc(OC)c(C(=O)Nc5c(F)cccc5F)c4)nc4ccccn34)n2)c(OC)cc1N1CCC(N2CCN(S(C)(=O)=O)CC2)CC1` the viability was 95.5%.
For `O=C(NOCC1CC1)c1ccc(F)c(F)c1Nc1ccc(I)cc1Cl`, the viability was 103%.
For `Oc1ccc2ccccc2c1SSc1c(O)ccc2ccccc12`, the viability was 90.8%.
`O=C1NC(=O)C(c2ccccc2[N+](=O)[O-])=C1Nc1ccc(O)c(Cl)c1` gave a viability of 93.9%.
The viability of `O=C1N=C(NCc2cccs2)S/C1=C\c1ccc2ncccc2c1` is reported as 95.2%.
`CCN(CC)CCCC(C)Nc1nc(C)cc(Nc2ccc3nc(C)cc(N)c3c2)n1` (centres unmarked) has a viability of 87.9%.
With `COc1cc2ncnc(Oc3ccc(CC(=O)Nc4cnn(C(C)C)c4)cc3)c2cc1OC` the viability was 96.1%.
With `N[C@@H]1CCCN(c2c(/C=C3\SC(=O)NC3=O)cccc2-c2ccccc2)C1` the viability was 69.4%.
For `C[C@H](Nc1ncnc2nc[nH]c12)c1cc2cccc(Cl)c2c(=O)n1-c1ccccc1`, the viability was 67%.
`Cc1[nH]c2ccccc2c1C1=C(NCCc2ccc(F)cc2)C(=O)N(C)C1=O` gave a viability of 98.9%.
The viability of `O=C1Nc2ccc(I)cc2/C1=C/c1cc(Br)c(O)c(Br)c1` is reported as 95.2%.
The viability of `COc1ccc(Cl)cc1NC(=O)Nc1cc(C)nc2ccccc12` is reported as 65.5%.
`O=C(c1cccc(Cl)c1F)N1CCN(Cc2cccc(Nc3nccs3)n2)CC1` has a viability of 44.4%.
`CCN1/C(=C/C(C)=O)Sc2ccc(OC)cc21` has a viability of 79.3%.
With `CCOC(=O)c1cnc2ccc(-c3cncc(NS(=O)(=O)c4ccccc4)c3)cn12` the viability was 23.6%.

Sample 2
Structure (SMILES): CC(C)n1cnc(-c2ccc(F)cc2)c1-c1ncc(C(=O)Nc2ccc(N3CCN(C)CC3)cc2)[nH]1
Method: phase 2a trial
Species: idiopathic pulmonary fibrosis patients
The “patients with rhinorrhoea” was 0% (all arms, grade 2 emergent event).
For 30 mg once daily, grade 3 emergent event: “patients with rhinorrhoea” read 0%.
For 60 mg once daily, grade 5 emergent event: “patients with rhinorrhoea” read 0%.
The “patients with rhinorrhoea” was 0% (all arms, grade 3 emergent event).
For 30 mg once daily, grade 5 emergent event: “patients with rhinorrhoea” read 0%.
The “patients with rhinorrhoea” was 0% (60 mg once daily, grade 2 emergent event).
The “patients with rhinorrhoea” was 0% (60 mg once daily, grade 4 emergent event).
The “patients with rhinorrhoea” was 0% (30 mg once daily, grade 1 emergent event).
The “patients with rhinorrhoea” was 0% (30 mg once daily, grade 4 emergent event).

Sample 3
Target: Lymphokine-activated killer T-cell-originated protein kinase (PBK, Homo sapiens, UniProt Q96KB5)
Effect on: enzyme activity
Mode: inhibitor
Tested at: 0.5 µM
Baseline: control
Construct (Q96KB5 1-322): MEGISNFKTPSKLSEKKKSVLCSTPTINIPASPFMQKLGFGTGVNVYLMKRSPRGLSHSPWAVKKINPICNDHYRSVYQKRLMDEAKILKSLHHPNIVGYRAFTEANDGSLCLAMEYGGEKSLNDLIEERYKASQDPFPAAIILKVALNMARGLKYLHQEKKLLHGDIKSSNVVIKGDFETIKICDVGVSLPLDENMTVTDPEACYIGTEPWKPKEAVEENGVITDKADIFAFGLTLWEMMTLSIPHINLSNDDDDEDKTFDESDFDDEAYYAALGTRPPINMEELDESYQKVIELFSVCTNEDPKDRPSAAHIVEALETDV
`Nc1nc(Nc2ccc(S(N)(=O)=O)cc2)nn1C(=O)c1c(F)cccc1F` has a remaining activity of 92.1%.
`Cc1ccc(NC2=CC(=O)c3sc(C)nc3C2=O)cc1` gave a remaining activity of 85.8%.
`CC(C)(C)n1nc(Cc2cccc3ccccc23)c2c(N)ncnc21` has a remaining activity of 90.2%.
With `CC#CC(=O)Nc1cc2c(Nc3ccc(F)c(Cl)c3)ncnc2cn1` the remaining activity was 99.9%.
`COc1cc(Nc2c(C#N)cnc3cc(OCCCN4CCN(C)CC4)c(OC)cc23)c(Cl)cc1Cl` gave a remaining activity of 104%.
For `N#CC(=C(N)Sc1ccc(N)cc1)c1ccccc1C(F)(F)F`, the remaining activity was 95.3%.
The remaining activity of `Nc1nccc(-c2c(-c3ccc(F)cc3)ncn2C2CCNCC2)n1` is reported as 94.9%.
For `Fc1ccc(-c2nc3n(c2-c2ccncc2)CCS3)cc1`, the remaining activity was 100%.
For `Cc1cc(Nc2nc(-c3ccccc3)nc3ccccc23)n[nH]1`, the remaining activity was 95.4%.
The remaining activity of `CSc1nc(-c2ccnc(N[C@@H](C)c3ccccc3)c2)c(-c2ccc(F)cc2)[nH]1` (racemic) is reported as 109%.
The remaining activity of `CCc1[nH]c(-c2ccc(OC)cc2)nc1-c1ccncc1` is reported as 104%.

Sample 4
SMILES: Cc1nccc(COC(=O)N2C[C@@H]3[C@@H](CNC(=O)c4ccc5[nH]nnc5c4)[C@@H]3C2)n1
Method: competition with immobilised ligand
Tested at: 1 µM
It gave 82% for remaining binding (LRRK2 (Homo sapiens, UniProt Q5S007, G2019S); cell-free assay).
It gave 79% for remaining binding (PIK3CA (Homo sapiens, UniProt P42336, H1047L); cell-free assay).
It gave 94% for remaining binding (MATK (Homo sapiens, UniProt P42679); cell-free assay).
It gave 90% for remaining binding (TEK (Homo sapiens, UniProt Q02763); cell-free assay).
The remaining binding was 100% (CDC42BPA (Homo sapiens, UniProt Q5VT25); cell-free assay).
TEC (Homo sapiens, UniProt P42680); binding — remaining binding: 94%.
MAP4K1 (Homo sapiens, UniProt Q92918); cell-free assay — remaining binding: 100%.
It gave 100% for remaining binding (CSNK1G1 (Homo sapiens, UniProt Q9HCP0); cell-free assay).
The remaining binding was 82% (DAPK2 (Homo sapiens, UniProt Q9UIK4); cell-free assay).
It gave 82% for remaining binding (FLT3 (Homo sapiens, UniProt P36888, N841I); cell-free assay).
The remaining binding was 100% (ANKK1 (Homo sapiens, UniProt Q8NFD2); cell-free assay).
For FLT3 (Homo sapiens, UniProt P36888, R834Q); cell-free assay: remaining binding read 85%.
GRK2 (Homo sapiens, UniProt P25098); cell-free assay — remaining binding: 100%.
For CDK5 (Homo sapiens, UniProt Q00535); cell-free assay: remaining binding read 100%.
The remaining binding was 93% (MAPK6 (Homo sapiens, UniProt Q16659); cell-free assay).
It gave 90% for remaining binding (STK24 (Homo sapiens, UniProt Q9Y6E0); cell-free assay).
The remaining binding was 100% (SGK1 (Homo sapiens, UniProt O00141); cell-free assay).
CSNK2A1 (Homo sapiens, UniProt P68400); cell-free assay — remaining binding: 81%.
It gave 82% for remaining binding (GSK3A (Homo sapiens, UniProt P49840); cell-free assay).

A few entries again (sample 3):
The remaining activity of `Nc1nccc(-c2c(-c3ccc(F)cc3)ncn2C2CCNCC2)n1` is reported as 94.9%.
For `Fc1ccc(-c2nc3n(c2-c2ccncc2)CCS3)cc1`, the remaining activity was 100%.
For `Cc1cc(Nc2nc(-c3ccccc3)nc3ccccc23)n[nH]1`, the remaining activity was 95.4%.
